Measurements from different studies.
A part holds a random share of what one study measured. Positions count from the first letter of the parent shown.

Block 1
Target: Interferon regulatory factor 1, DNA-binding domain (IRF1, Homo sapiens, UniProt P10914, residues 1-114)
Technique: protein-binding microarray
Form: hairpin DNA
Sample: in vitro
Concentration: not given
Setting: whole hairpin DNA, median over replicate spots
Reference: not given
Direction: higher = stronger binding
Shared flanks, not repeated: GAGGCCCG … CGGGCCTCACAC
Residues (chain): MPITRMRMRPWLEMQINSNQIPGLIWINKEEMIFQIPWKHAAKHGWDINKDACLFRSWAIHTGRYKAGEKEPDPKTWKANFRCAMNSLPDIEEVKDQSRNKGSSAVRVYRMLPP
| Strand | median fluorescence [a.u.] |
| --- | --- |
| AAAGCGAAACGCCTCCTGGCGTTTCGCTTT (5mC at 35) | 1860 |
| AAACGGAAACGCCTCCTGGCGTTTCCGTTT (5mC at 12 34) | 526 |
| CGAGCGAAACGCCTCCTGGCGTTTCGCTCG (5mC at 9 37) | 532 |
| AAACGGAAACGCCTCCTGGCGTTTCCGTTT (5mC at 34) | 532 |
| ACAGCGAAACGCCTCCTGGCGTTTCGCTGT (5mC at 10) | 516 |
| CAAGCGAAACGCCTCCTGGCGTTTCGCTTG (5mC at 9) | 550 |
| AAAGTGCGACGCCTCCTGGCGTCGCACTTT (5mC at 15 31) | 522 |
| ACGGCGAAACGCCTCCTGGCGTTTCGCCGT (5mC at 10 36) | 506 |

Block 2
Target: PABPC1L2, full length, GST fusion (mouse, UniProt A0ABA7IW68)
Technique: RNAcompete
Form: RNA
Sample: in vitro
Concentration: 20 nM
Setting: 7-mer, probes averaged, single round
Reference: mean of 7-mers
Direction: higher = stronger binding
Target sequence (chain): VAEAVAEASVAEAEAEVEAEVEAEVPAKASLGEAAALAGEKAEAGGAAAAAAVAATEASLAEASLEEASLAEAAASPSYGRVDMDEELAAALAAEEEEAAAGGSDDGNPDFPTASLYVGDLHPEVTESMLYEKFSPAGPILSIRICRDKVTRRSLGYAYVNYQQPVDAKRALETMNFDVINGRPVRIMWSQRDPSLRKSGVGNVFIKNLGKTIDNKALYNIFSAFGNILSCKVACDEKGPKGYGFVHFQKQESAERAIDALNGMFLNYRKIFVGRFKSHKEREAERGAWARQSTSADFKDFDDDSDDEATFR
| Strand | 7-mer Z-score |
| --- | --- |
| AGAUCCU | -0.316 |
| AGAAUGG | 0.144 |
| CAGUCAU | -0.327 |
| AUAUUAA | 0.0352 |
| UGGUUUU | -0.38 |
| AGUAGUG | -0.0464 |
| AGGAAGC | 0.0134 |
| GCAGUUU | -0.199 |

Further values, each from its own experiment
P1: PafA, mature enzyme, eGFP fusion (Elizabethkingia meningoseptica, UniProt Q9KJX5); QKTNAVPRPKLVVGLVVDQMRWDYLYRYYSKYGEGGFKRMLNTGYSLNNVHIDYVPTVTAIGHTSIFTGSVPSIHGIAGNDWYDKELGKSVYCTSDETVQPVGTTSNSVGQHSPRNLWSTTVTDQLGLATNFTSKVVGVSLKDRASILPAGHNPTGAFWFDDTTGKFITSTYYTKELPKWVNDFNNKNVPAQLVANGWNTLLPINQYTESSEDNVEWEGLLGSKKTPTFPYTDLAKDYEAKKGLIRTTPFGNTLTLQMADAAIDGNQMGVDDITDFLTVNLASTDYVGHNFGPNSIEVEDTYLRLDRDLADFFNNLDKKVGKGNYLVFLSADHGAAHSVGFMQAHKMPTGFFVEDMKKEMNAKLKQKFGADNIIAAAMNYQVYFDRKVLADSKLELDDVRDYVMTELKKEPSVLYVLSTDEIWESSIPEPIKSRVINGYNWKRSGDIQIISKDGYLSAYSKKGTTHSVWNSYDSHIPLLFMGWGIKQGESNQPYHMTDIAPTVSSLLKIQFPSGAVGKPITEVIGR
P2: viral docking peptide; YKVKRRLVFGADD; partner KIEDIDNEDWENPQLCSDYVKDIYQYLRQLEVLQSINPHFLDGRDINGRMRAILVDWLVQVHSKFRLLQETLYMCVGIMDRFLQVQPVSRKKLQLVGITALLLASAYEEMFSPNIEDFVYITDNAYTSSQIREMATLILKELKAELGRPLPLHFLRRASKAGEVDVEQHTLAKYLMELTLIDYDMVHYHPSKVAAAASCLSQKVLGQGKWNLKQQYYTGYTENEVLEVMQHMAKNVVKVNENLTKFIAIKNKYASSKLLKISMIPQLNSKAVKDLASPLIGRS
| Change | target | assay | test system | setting | how to read | measurement | result |
| --- | --- | --- | --- | --- | --- | --- | --- |
| P1 K365G | inorganic phosphate, free oxyanion | microfluidic competitive inhibition | in vitro, cell-free expressed | not given, derived from inhibition constants, unchanged parent 615000 nM | lower = stronger binding | phosphate dissociation constant | 724 µM |
| P2 G10V | CCNB2, cyclin fold, Cln2 fusion (human) | yeast growth competition, sequencing | yeast | strong parent motif | reference: not given, higher = stronger binding | normalised enrichment score | 1.87 |

A few entries again (block 1):
| Strand | median fluorescence [a.u.] |
| --- | --- |
| AAAGTGCGACGCCTCCTGGCGTCGCACTTT (5mC at 15 31) | 522 |
| ACGGCGAAACGCCTCCTGGCGTTTCGCCGT (5mC at 10 36) | 506 |
